Measurements collected from several papers.
Numbered parts are unrelated; each lists some results of a single study. Substitutions count along the parent as printed.

Series 1
Target: Histone acetyltransferase KAT6A, both winged helices, GST fusion (KAT6A, Homo sapiens, UniProt Q92794, residues 1-181)
Technique: protein binding microarray
Molecule type: double-stranded DNA, one strand shown
Matrix: in vitro
Tested at: not given
Notes: 8-mer, flanks averaged, mean of 2 arrays, mostly near background
Relative to: not given
Direction: higher = stronger binding
Residues (chain): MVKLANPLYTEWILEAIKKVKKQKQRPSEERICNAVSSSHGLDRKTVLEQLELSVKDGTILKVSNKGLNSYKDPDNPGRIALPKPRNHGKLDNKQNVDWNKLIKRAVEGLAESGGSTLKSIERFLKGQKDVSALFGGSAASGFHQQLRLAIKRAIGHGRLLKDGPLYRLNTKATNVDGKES
| Oligonucleotide | E-score |
| --- | --- |
| ACCGGCTC | 0.132 |
| AACACCTT | -0.0741 |
| ACACTTAA | -0.093 |
| AGGAGTTG | -0.034 |
| GCTCAAGA | -0.0865 |
| CACGGCAG | 0.209 |
| ATATTTGC | 0.0327 |
| CTCGTCAC | 0.0553 |
| CTCCGTTA | 0.161 |
| GTGAGAAC | -0.0219 |
| CCTACCAA | -0.233 |
| ATCGCGCG | 0.338 |
| CAGGAGCA | -0.191 |
| GAGTTGGC | -0.162 |
| CAGTCCAA | -0.166 |
| ATTAAAGC | -0.021 |
| AGAGGGCG | 0.269 |
| AAAGAAAA | -0.0354 |
| ACCACAGG | -0.124 |
| AAAATATC | -0.0758 |
| CTCCGGCA | 0.103 |
| AACGTAAA | -0.103 |
| ACGCCTAT | 0.0215 |
| GCGGCCGA | 0.334 |
| CACGGGCC | 0.163 |

Series 2
Target: RING finger protein unkempt homolog, zinc fingers 1-6, GST-SBP tag (UNK, Homo sapiens, UniProt Q9C0B0, residues 30-357)
UniProt Q9C0B0, sequence (30-357, looked up): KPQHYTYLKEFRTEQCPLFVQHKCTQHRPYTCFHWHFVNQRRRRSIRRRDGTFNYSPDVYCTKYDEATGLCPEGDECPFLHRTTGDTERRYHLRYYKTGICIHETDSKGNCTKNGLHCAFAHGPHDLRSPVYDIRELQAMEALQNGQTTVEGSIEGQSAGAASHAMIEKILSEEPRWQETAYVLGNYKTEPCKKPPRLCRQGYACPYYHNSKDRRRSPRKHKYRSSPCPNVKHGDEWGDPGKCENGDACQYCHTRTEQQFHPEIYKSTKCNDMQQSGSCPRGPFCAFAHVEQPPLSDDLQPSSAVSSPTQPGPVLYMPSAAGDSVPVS
Technique: RNA Bind-n-Seq
Molecule type: RNA
Matrix: in vitro
Tested at: not given
Notes: RNA with constant flanks, human-mouse chimeric sites, ends assumed
Relative to: input RNA pool
Direction: higher = stronger binding
All sequences stand within: GGGAGUUCUACAGUCCGACGAUC … CAACAGAGGAUUGAGCAUCA
| Oligonucleotide | bound/input enrichment |
| --- | --- |
| GGGGAGAAACCUUACGAGUGUGUGCAGUGUGGGAAAUCCUACAGUCAGAGCUCAAACCUUUUUAGACAUCAGAGAAGACACAAUGCAGAAAAACUUUUGAAUGUUGUGAAGGUUUAAGAA | 0.383 ratio |
| ACCUCCCCCUCCCGCCUCACCCCACCCAAGAAAGAAAAAAGUGUGUUGGCGUUUCUUUUCCUUCCCCAUACAAAGUGAUUACAGUUUCCCCCGCAAGGGUCUAUCGAAGGGCUUGACGGA | 1.08 ratio |
| CACAGAGCAGCACCUACCUCCUCCUUCUUUCCACACCUGCAAACUCUUUUGCCUGGGCUGAAUAUUUAGUGUAAUUACAUCUCAGCUUUGAGGGCUCCUGUGGCAAAUUCCCGGAUUAAA | 0.422 ratio |
| CCCUCCCCGGGCCACCCACCCCUCCCGGCUCCCCGCCGAGAUCCAGGUUUCUUCUUAUUUCAUAGCAAGCCAGAACAAUGUUCUACGCACAUUUUGUUCUCAGUAAACGAGGGCCUCUGG | 0.747 ratio |
| GUAAUGUUUAUUCAUUUAACUUAUUUUUAUAGCUAGAUAAAUAUUGUUAGUCUUAGACAAUAGCUCACAUUUUUUGAGAAGCAUGCCCUCCCUGUCCAUUGGGCCCAUAACAUGACCCAG | 14.5 ratio |
| AGCACAACCCCAGCAAAGCUAAGAAAUCCUUGCACAAGUGAACAAAACUGCACCAGCCCAUUUAGCUACAAAAAUGUGCUUAGUCUUACUGACAGAGGAGAAGUAUUCAAUGAACUUGUU | 0.695 ratio |

Series 3
Target: ABI1, truncated, D143A, DHFR fusion (Arabidopsis thaliana)
Technique: DHFR PCA, deep sequencing
Matrix: yeast
Notes: methotrexate growth selection, single substitutions
With: (+)-ABA 0.39 µM
Relative to: wild-type fitted maximum
Direction: higher = stronger binding
Starting sequence: PYL1, truncated, DHFR fusion (Arabidopsis thaliana); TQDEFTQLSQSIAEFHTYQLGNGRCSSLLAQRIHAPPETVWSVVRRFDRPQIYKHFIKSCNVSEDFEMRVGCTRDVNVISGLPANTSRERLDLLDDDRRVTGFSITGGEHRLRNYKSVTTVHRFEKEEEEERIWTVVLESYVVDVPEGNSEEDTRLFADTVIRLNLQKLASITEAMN
| Change | relative binding score [%] |
| --- | --- |
| T135K | -2.53 |
| V44P | -7.61 |
| T101S | 3.49 |
| A170L | -20.9 |
| E125T | 45.3 |
| S42D | 32.3 |
| K116W | -3.68 |
| L169G | -9.72 |
| R155M | 19.6 |
| N22Y | 35 |
| T6D | 53 |
| Q19A | 39.1 |
| F157D | -5.71 |
| H110G | 23.1 |

Series 4
Target: CCNA1, cyclin fold, Cln2 fusion (human)
Technique: yeast growth competition, sequencing
Matrix: yeast
Notes: weak parent motif
Relative to: not given
Direction: higher = stronger binding
Starting sequence: CDKN1C docking peptide (human); TSACRSLFGPVDH
| Change | normalised enrichment score |
| --- | --- |
| C4A | 0.262 |
| S6A | 0.256 |
| G9A | 0.5 |
| R5A | 0.102 |
| L7A | 0.131 |
| F8L | 0.312 |
| F8A | 0.148 |

Excerpt of the above (series 2):
| Oligonucleotide | bound/input enrichment |
| --- | --- |
| GUAAUGUUUAUUCAUUUAACUUAUUUUUAUAGCUAGAUAAAUAUUGUUAGUCUUAGACAAUAGCUCACAUUUUUUGAGAAGCAUGCCCUCCCUGUCCAUUGGGCCCAUAACAUGACCCAG | 14.5 ratio |
| GGGGAGAAACCUUACGAGUGUGUGCAGUGUGGGAAAUCCUACAGUCAGAGCUCAAACCUUUUUAGACAUCAGAGAAGACACAAUGCAGAAAAACUUUUGAAUGUUGUGAAGGUUUAAGAA | 0.383 ratio |
| CCCUCCCCGGGCCACCCACCCCUCCCGGCUCCCCGCCGAGAUCCAGGUUUCUUCUUAUUUCAUAGCAAGCCAGAACAAUGUUCUACGCACAUUUUGUUCUCAGUAAACGAGGGCCUCUGG | 0.747 ratio |
| CACAGAGCAGCACCUACCUCCUCCUUCUUUCCACACCUGCAAACUCUUUUGCCUGGGCUGAAUAUUUAGUGUAAUUACAUCUCAGCUUUGAGGGCUCCUGUGGCAAAUUCCCGGAUUAAA | 0.422 ratio |
| ACCUCCCCCUCCCGCCUCACCCCACCCAAGAAAGAAAAAAGUGUGUUGGCGUUUCUUUUCCUUCCCCAUACAAAGUGAUUACAGUUUCCCCCGCAAGGGUCUAUCGAAGGGCUUGACGGA | 1.08 ratio |
| AGCACAACCCCAGCAAAGCUAAGAAAUCCUUGCACAAGUGAACAAAACUGCACCAGCCCAUUUAGCUACAAAAAUGUGCUUAGUCUUACUGACAGAGGAGAAGUAUUCAAUGAACUUGUU | 0.695 ratio |
